Measurements gathered from unrelated publications.
Lines come from different studies, so protocols differ. Values joined by “and” are separate records of one study, mostly repeats; a detail may differ. Numbers after ± are the reported error.
Nuclear receptor subfamily 2 group C member 2 ligand-binding domain: Nuclear receptor subfamily 2 group C member 2, ligand-binding domain (Homo sapiens, UniProt P49116)
UniProt P49116, sequence (whole entry, looked up): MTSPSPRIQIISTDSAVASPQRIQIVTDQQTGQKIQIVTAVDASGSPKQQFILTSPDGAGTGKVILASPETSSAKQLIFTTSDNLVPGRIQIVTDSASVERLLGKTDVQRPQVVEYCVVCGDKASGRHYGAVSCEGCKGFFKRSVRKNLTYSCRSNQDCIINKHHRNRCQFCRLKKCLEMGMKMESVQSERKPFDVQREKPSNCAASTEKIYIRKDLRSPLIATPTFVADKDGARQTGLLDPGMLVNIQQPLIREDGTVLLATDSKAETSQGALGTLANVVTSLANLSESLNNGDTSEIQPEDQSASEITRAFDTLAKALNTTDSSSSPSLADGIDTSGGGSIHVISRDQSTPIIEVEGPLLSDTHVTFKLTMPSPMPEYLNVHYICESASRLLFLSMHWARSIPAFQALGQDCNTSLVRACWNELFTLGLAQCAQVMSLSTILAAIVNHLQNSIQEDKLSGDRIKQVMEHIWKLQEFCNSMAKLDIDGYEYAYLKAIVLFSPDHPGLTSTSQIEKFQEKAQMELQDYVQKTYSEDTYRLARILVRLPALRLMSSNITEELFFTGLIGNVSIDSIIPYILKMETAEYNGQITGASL
DRD5: D(1B) dopamine receptor (DRD5, Homo sapiens, UniProt P21918)
UniProt P30613, sequence (whole entry, looked up): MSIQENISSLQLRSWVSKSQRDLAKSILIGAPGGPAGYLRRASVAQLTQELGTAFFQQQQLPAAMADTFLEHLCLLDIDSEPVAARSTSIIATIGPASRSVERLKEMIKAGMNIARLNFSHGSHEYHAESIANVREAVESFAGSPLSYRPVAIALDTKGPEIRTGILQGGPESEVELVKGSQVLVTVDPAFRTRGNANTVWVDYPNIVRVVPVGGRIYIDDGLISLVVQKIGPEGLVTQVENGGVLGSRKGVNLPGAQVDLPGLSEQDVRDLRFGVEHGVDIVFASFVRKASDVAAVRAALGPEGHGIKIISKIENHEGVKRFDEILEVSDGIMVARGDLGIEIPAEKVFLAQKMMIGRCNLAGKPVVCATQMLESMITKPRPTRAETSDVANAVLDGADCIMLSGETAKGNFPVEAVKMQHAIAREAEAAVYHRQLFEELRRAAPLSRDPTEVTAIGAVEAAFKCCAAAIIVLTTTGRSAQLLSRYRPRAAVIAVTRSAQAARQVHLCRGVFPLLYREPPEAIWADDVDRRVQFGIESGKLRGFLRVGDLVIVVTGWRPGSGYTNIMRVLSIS
UniProt Q64663, sequence (whole entry, unmodified, looked up): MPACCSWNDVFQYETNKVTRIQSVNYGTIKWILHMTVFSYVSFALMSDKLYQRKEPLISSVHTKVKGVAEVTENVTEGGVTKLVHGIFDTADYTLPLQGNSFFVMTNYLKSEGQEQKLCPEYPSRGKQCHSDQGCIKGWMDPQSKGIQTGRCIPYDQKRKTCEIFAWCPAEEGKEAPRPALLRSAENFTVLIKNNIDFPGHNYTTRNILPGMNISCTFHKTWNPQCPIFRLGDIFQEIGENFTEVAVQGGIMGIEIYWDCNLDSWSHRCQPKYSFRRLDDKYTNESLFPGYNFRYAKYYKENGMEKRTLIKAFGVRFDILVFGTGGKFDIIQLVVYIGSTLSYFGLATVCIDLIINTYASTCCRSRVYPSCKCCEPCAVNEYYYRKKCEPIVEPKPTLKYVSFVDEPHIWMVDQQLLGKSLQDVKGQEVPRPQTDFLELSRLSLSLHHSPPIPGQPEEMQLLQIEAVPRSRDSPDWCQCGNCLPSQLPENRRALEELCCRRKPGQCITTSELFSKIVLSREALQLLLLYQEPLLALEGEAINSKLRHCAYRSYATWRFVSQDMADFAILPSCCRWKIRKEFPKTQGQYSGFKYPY
UniProt O14980, sequence (whole entry, looked up): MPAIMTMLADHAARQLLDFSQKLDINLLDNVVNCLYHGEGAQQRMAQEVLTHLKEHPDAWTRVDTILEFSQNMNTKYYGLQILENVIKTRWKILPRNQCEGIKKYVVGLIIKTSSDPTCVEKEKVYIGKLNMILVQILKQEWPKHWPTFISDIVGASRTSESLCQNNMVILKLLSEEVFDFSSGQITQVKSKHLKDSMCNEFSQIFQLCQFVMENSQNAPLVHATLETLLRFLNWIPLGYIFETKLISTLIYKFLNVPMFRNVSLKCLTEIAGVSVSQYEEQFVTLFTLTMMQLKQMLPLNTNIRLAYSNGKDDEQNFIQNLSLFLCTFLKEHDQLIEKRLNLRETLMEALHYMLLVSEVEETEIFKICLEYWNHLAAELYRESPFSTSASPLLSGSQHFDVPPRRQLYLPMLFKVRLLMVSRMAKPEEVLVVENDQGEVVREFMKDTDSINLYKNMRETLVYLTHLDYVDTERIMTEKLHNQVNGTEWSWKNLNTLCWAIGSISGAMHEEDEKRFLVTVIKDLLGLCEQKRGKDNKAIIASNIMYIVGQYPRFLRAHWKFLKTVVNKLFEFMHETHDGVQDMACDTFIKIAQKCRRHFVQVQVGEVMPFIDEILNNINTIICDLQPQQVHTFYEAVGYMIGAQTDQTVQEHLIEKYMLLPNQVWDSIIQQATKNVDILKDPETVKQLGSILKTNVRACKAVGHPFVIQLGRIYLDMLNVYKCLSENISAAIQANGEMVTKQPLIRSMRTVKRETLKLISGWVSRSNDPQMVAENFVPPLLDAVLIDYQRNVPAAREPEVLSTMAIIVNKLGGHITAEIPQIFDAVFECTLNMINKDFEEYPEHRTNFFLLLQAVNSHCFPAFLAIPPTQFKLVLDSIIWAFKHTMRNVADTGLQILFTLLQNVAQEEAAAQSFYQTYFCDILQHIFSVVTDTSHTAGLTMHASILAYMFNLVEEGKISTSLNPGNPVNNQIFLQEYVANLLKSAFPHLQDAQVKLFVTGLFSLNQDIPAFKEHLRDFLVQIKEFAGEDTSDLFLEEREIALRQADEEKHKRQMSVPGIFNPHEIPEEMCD
UniProt O76090, sequence (whole entry, unmodified, looked up): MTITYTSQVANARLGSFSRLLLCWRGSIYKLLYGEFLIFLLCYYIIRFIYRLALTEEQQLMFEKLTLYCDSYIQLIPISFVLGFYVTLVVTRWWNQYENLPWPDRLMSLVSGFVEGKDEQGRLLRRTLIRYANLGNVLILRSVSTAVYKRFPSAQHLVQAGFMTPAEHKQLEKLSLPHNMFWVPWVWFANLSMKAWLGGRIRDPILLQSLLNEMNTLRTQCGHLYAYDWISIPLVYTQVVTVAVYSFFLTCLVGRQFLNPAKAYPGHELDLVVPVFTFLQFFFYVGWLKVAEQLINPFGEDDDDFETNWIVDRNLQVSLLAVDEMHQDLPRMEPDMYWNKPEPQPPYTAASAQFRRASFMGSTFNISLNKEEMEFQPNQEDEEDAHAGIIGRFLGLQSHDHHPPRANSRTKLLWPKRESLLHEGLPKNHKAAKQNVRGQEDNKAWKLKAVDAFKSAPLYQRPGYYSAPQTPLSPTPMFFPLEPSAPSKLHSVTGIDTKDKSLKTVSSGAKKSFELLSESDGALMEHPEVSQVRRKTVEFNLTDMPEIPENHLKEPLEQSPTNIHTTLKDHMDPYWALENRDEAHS
UniProt P27361, sequence (whole entry, looked up): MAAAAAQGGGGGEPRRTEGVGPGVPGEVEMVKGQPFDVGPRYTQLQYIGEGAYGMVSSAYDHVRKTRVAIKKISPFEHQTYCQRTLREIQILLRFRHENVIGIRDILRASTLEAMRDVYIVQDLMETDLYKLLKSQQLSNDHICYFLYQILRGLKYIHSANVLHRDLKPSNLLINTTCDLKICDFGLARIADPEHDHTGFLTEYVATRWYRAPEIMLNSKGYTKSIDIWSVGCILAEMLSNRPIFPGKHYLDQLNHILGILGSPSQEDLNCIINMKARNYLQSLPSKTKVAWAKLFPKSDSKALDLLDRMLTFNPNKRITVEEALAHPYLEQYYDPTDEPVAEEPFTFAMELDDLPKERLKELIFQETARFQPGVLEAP
UniProt P51575, sequence (whole entry, unmodified, looked up): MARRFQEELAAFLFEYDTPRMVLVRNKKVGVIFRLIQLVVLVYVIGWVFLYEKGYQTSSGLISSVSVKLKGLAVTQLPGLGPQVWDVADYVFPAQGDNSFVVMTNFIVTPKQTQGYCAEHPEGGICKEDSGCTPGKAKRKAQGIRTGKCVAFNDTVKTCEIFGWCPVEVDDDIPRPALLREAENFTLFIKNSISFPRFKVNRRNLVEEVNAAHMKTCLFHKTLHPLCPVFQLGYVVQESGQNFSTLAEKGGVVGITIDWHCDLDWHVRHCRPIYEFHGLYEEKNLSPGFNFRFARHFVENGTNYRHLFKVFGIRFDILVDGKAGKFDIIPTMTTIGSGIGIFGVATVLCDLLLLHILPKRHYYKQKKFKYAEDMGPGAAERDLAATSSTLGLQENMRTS
UniProt Q9UH17, sequence (whole entry, looked up): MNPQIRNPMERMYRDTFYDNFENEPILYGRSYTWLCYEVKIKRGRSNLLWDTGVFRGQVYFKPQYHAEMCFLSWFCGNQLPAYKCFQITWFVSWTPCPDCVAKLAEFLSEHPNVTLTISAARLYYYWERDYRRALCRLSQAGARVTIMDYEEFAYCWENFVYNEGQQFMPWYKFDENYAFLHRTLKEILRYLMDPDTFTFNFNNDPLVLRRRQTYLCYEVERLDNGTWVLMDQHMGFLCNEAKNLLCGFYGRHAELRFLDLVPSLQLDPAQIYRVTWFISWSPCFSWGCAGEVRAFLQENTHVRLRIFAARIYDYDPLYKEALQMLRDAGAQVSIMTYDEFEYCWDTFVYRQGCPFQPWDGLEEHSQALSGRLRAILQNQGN
UniProt P63208, sequence (whole entry, looked up): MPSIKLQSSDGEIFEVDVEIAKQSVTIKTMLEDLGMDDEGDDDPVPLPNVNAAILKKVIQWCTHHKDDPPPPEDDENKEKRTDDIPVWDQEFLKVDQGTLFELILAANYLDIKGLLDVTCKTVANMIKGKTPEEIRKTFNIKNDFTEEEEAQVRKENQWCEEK
UniProt Q16774, sequence (whole entry, unmodified, looked up): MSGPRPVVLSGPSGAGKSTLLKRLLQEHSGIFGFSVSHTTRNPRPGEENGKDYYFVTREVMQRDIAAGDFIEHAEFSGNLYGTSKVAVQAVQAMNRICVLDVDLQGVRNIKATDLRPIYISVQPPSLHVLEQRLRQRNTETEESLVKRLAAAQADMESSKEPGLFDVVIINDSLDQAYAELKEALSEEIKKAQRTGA

CN1C(C(=O)Nc2ccccn2)=C(O)c2sc(Cl)cc2S1(=O)=O
koff (Nuclear receptor subfamily 2 group C member 2 ligand-binding domain; SPR imaging; 600 nM): 4.55e-08 s⁻¹

Cc1ncccc1OC[C@H]1CN(CCN2CCc3ccccc32)CCO1
inhibition (DRD5; radioligand binding; concentration not given, added: [3H]SCH23390): 17.1%

Oc1ccc(/C=C/c2cc(O)cc(O)c2)cc1
koff fold decrease (O-methyltransferase (Sorghum bicolor, UniProt A0A1B6PFV1); biolayer interferometry; added: saturating SAH; reference: apo protein): 7.26 fold

CO[C@H]1O[C@H](COS(=O)(=O)O)[C@@H](O[C@@H]2O[C@@H](C(=O)O)[C@@H](O[C@H]3O[C@H](COS(=O)(=O)O)[C@@H](O[C@@H]4O[C@H](C(=O)O)[C@@H](O[C@H]5O[C@H](COS(=O)(=O)O)[C@@H](O)[C@H](O)[C@H]5NS(=O)(=O)O)[C@H](O)[C@H]4O)[C@H](OS(=O)(=O)O)[C@H]3NS(=O)(=O)O)[C@H](O)[C@H]2OS(=O)(=O)O)[C@H](O)[C@H]1NS(=O)(=O)O
entropic contribution TΔS (Beta-2-glycoprotein 1, domain V (APOH, Homo sapiens, UniProt P02749, V266L); isothermal titration calorimetry; 298 K, added: 150 mM NaCl): 1920 cal/mol

CCCC[C@H]1CN(c2cccc(OC(F)(F)F)c2)C(=O)CN1Cc1cncn1Cc1ccc(C(F)(F)F)cc1
IC50 (Cryptococcus neoformans farnesyltransferase; enzyme activity, inhibitor, fluorescence; added: 1 µM FPP, 0.5 µM dansylated peptide): 280 ± 150 nM

COc1cc(-c2cc(C(C)=O)n3ccccc23)cc(OC)c1Cn1ccnc1
ΔTm (Bromodomain testis-specific protein, BD1 (BRDT, Homo sapiens, UniProt Q58F21)): 2.8 °C

CC1CCCN(C(=O)c2cc3ncccn3n2)C1 (stereo not drawn)
log fold enrichment (F-box only protein 22, with SKP1 (Homo sapiens, UniProt Q8NEZ5); binding, affinity selection mass spectrometry; reference: other proteins in batch): -0.0889

COc1ccc(F)cc1C(=O)NCc1ccc(-c2nn([C@@H](C)C(F)(F)F)c(N)c2C(N)=O)cc1
first melting temperature (BTK (Homo sapiens, UniProt Q06187); differential scanning fluorimetry; added: BTK inhibitor 100 µM): 41.2 °C

CCCCN1CCCCC1C(=O)Nc1c(C)cccc1C (stereo not drawn)
koff (Nuclear receptor subfamily 2 group C member 2 ligand-binding domain; SPR imaging; 600 nM): 4.59e-07 s⁻¹

N[C@@H](Cc1ccccc1)C(=O)O
ΔH (PAL1 (Petroselinum crispum, UniProt P24481, Y110F); binding, ITC): -37.7 kcal/mol

O=C(Nc1cnccc1Cl)N1CCN(Cc2ccc3c(c2)OC(F)(F)O3)CC1
ED50 (Faah (Mus musculus, UniProt O08914); enzyme activity, inhibitor, ex vivo; rat, brain; oral, 8 h): 12.5 mg/kg

O=c1nc(SCc2cc(F)cc(C(F)(F)F)c2)nc(SCc2ccc3nc(Cl)ccc3c2)[nH]1
linear DNA (TOP2A (Homo sapiens, UniProt P11388); DNA cleavage; 15.6 µM, replicate 2): 0%

O=C1c2ccccc2CCN1CCCCN1CCN(c2cccc(Cl)c2Cl)CC1
inhibition (DRD5; radioligand binding; concentration not given, added: [3H]SCH23390): 76.6%

CC[C@@H]1[C@H](F)C(=O)N[C@@H]1COc1nccc2cc(C(N)=O)c(OC)cc12
inhibition (RPS6KC1 (Homo sapiens, UniProt Q96S38); ATP probe binding, KiNativ profiling, refers to: domain 1 ATP site; THP-1 cell lysate; 0.2 mM): -1.8%

CC(C)C[C@@H]1NC(=O)[C@H](C(C)C)NC(=O)CNC(=O)[C@H](CC(N)=O)NC(=O)[C@@H]2CCCN2C(=O)[C@H](Cc2ccc(O)cc2)NC(=O)[C@H](CCCNC(=N)N)NC(=O)[C@H](Cc2ccccc2)NC(=O)[C@@H](NC(=O)[C@H](CCCCN)NC(=O)[C@@H]2CCCN2C(=O)[C@H](C)NC(=O)[C@H](C)NC(=O)[C@@H](N)Cc2ccc(O)cc2)CSSC[C@@H](C(=O)N[C@H](C(N)=O)[C@@H](C)O)NC(=O)[C@H](C)NC1=O
binding stoichiometry (Alpha-2-HS-glycoprotein, asialo (AHSG, Bos taurus, UniProt P12763); isothermal titration calorimetry; concentration not given, pH 7.0, 25 °C, added: asialofetuin): 0.115

Cc1cc(-c2ccnc3[nH]cc(F)c23)cc(F)c1[C@@]1(O)[C@H](C)CN(C(=O)CN)C[C@@H]1C
inhibition (AKT1 and AKT3; ATP probe binding, KiNativ, refers to: Lys1 site; HEK293T cell lysate; 10 µM): 1.5%

O=C(O)c1ccc(=O)c2nc3c4c(ccc3[nH]c1-2)[C@@H]1Cc2nc3cccc(O)c3nc2[C@H](O4)[C@H]1O
Hill slope (Eukaryotic translation initiation factor 4E, with 4E-BP1 (EIF4E, Homo sapiens, UniProt P06730); click chemistry enzyme-linked): ~-1

NCCS(=O)(=O)O
normalised MST signal (SLC6A6 (Homo sapiens, UniProt P31641, Y138A); binding, microscale thermophoresis; 977 nM, room temperature, added: 50 nM labelled protein; higher = more binding): -0.00223

Nc1ncnc2c1ncn2[C@@H]1O[C@H](CO[P@](=O)(O)O[P@](=O)(O)O[P@@](=O)(O)S)[C@@H](O)[C@H]1O
ΔH (GUK1 (Homo sapiens, UniProt Q16774); binding, isothermal titration calorimetry; molar ratio 3.053, fitted curve): -0.249 kcal/mol

CC[S+]([O-])c1nc(-c2ccccc2)cc(C(F)(F)F)n1 (stereo not drawn)
cells with nuclear reporter (Exportin-1 (XPO1, Homo sapiens, UniProt O14980); nuclear export, high content imaging; HeLa Kyoto reporter; 1.58 µM, 2 h): 1.27% and 3.63% and 2.47%

Cc1ncc([N+](=O)[O-])n1CCO
koff (Nuclear receptor subfamily 2 group C member 2 ligand-binding domain; SPR imaging; 600 nM): 1.25e-05 s⁻¹

CC[C@H](C)[C@H](NC(=O)[C@H](CCC(=O)O)NC(=O)[C@H](CCC(=O)O)NC(=O)[C@@H]1CCCN1C(=O)[C@H](CC(=O)O)NC(=O)[C@H](C)NC(=O)[C@H](CCC(N)=O)NC(=O)[C@@H](NC(=O)[C@H](C)NC(=O)[C@@H](NC(=O)[C@H](CO)NC(=O)[C@@H](NC(=O)[C@H](CCCCN)NC(=O)[C@@H](N)Cc1ccc(O)cc1)[C@@H](C)O)C(C)C)[C@@H](C)O)C(=O)N[C@H](C(=O)N[C@H](C(=O)N[C@@H](CC(C)C)C(=O)N[C@@H](CC(=O)O)C(=O)N[C@@H](CC(=O)O)C(=O)N[C@@H](CC(=O)O)C(=O)N[C@@H](CC(=O)O)C(=O)O)C(C)C)[C@@H](C)CC
enthalpy change (ΔH) (Small ubiquitin-related modifier 1, residues 17-97 (Homo sapiens, UniProt P63165, C52A); isothermal titration calorimetry; concentration not given, pH 7.4, N-terminally truncated SUMO1): 4.52 ± 0.03 kcal/mol

Nc1ncnc2c1ncn2[C@@H]1O[C@H](COP(=O)(O)OP(=O)(O)OP(=O)(O)O)[C@@H](O)[C@H]1O
normalized current (P2X purinoceptor 7 (P2rx7, Rattus norvegicus, UniProt Q64663, Q143A); ion current, agonist, two-electrode voltage clamp; Xenopus laevis oocytes; 19 µM; reference: highest concentration response): 0.00971 and 0.0245 and 0.0366

CCCC[C@H](NC(=O)[C@H](C)c1c(C)[nH]c2ccc(O)cc12)c1ncc(-c2cc3ccccc3nc2OC)[nH]1
effect (HTR1A (Homo sapiens, UniProt P08908); 10 µM): 75%

C[C@@H]1CCO[C@H]2Cn3cc(C(=O)NCc4ccc(F)cc4F)c(=O)c(O)c3C(=O)N12
inhibition (SLC29A4 (Homo sapiens, UniProt Q7RTT9); transport; MDCK-II, transfected; 3 µM, added: MPP+ 10 µM): -10%

Nc1ccc(C(=O)O)cc1
current density (BEST1, with wild-type BEST1 (Homo sapiens, UniProt O76090, Q293K); ion current, whole-cell patch clamp; HEK293 co-expressing mutant and wild-type; concentration not given, voltage -20 mV): -0.97 pA/pF and -3.54 pA/pF and -2.39 pA/pF and -2.37 pA/pF and -7.73 pA/pF and -2.99 pA/pF

O=C(COP(=O)(O)O)[C@@H](O)[C@H](O)[C@H](O)COP(=O)(O)O
thermal stability ratio (PKLR (Homo sapiens, UniProt P30613); thermal proteome profiling; HepG2 cell lysate; concentration not given, 57 over 37 °C; reference: compound over control): 1 and 0.25 and 0.545

Clc1ccc(CCC(Cn2ccnc2)Sc2c(Cl)cccc2Cl)cc1 (stereo not drawn)
koff (Nuclear receptor subfamily 2 group C member 2 ligand-binding domain; SPR imaging; 600 nM): 8.43e-08 s⁻¹

O=C1OC(c2ccccc2)=N/C1=C\c1cccc(O)c1
Vmax (Pancreatic alpha-amylase (Homo sapiens, UniProt P04746); inhibitor, Lineweaver-Burk; 100 ppm, added: starch substrate): 0.045 mg/mL/min

CC[C@H](C)[C@@H]1NC(=O)[C@H](Cc2ccc(O)cc2)NC(=O)CSC[C@@H](C(N)=O)NC(=O)CNC(=O)[C@H](Cc2c[nH]cn2)NC(=O)[C@H](CCCNC(=N)N)NC(=O)[C@H](CC(N)=O)NC(=O)[C@@H]2CCCN2C(=O)[C@H](Cc2ccccc2)NC(=O)[C@H]([C@@H](C)O)NC(=O)CNC(=O)[C@H](CC(C)C)NC(=O)[C@@H]2CCCN2C(=O)[C@H]([C@@H](C)O)NC(=O)[C@H](CCCCN)NC1=O
ΔH (VPS35/VPS29 (Homo sapiens, UniProt Q96QK1+Q9UBQ0); binding, isothermal titration calorimetry; 25 °C): -7.9 ± 1.2 kcal/mol

N[C@@H](CCO)C(=O)O
Km (Slc1a5 (Rattus norvegicus, UniProt D3ZJ25); anion leak current, substrate, whole-cell patch clamp; HEK293 transfected): 10 µM

CCC1(O)CCCN(C(=O)c2ccc(-c3ccc(F)c(NC(=O)CCl)c3)cc2)C1 (stereo not drawn)
unmodified protein (DNA dC->dU-editing enzyme APOBEC-3B, C-terminal domain (Homo sapiens, UniProt Q9UH17); covalent adduct, intact protein MS; 1 h, 10-fold excess, 250 µM): 20% and 35%

Nc1[nH]nc2nnc(-c3c(-c4ccccc4)nn4ccccc34)cc12
kinase activity (MAPK3 (Homo sapiens, UniProt P27361); ADP-Glo; 1.58 µM, added: MBP substrate): 49.6% and 47.2% and 23.3%

Nc1ncnc2c1ncn2[C@@H]1O[C@H](COP(=O)(O)CP(=O)(O)OP(=O)(O)O)[C@@H](O)[C@H]1O
specific binding (P2X purinoceptor 1 (P2RX1, Homo sapiens, UniProt P51575, K215A); saturation binding; HEK293; 13 nM): 1290 CCPM and 1730 CCPM

O=C(O)[C@@H]1CCCN1c1ncnc2[nH]cnc12 (racemic)
log fold enrichment (S-phase kinase-associated protein 1 (SKP1, Homo sapiens, UniProt P63208); binding, affinity selection mass spectrometry; reference: other proteins in batch): 0.0403

CC[C@H](C)[C@@H]1NC(=O)[C@H](C)NC(=O)[C@H]([C@@H](C)CC)NC(=O)[C@H](CCC(N)=O)NC(=O)[C@H](C)NC(=O)[C@H](CCCNC(=N)N)NC(=O)[C@H](C(C)C)NC(=O)[C@H](CC(C)C)NC(=O)[C@H](CCC(=O)O)NC(=O)[C@H](CCCNC(=N)N)NC(=O)CNC(=O)[C@@H](NC(=O)[C@H](CC(C)C)NC(=O)[C@H](CCCCN)NC(=O)[C@@H](NC(=O)[C@@H](NC(=O)[C@H](CCC(=O)O)NC(=O)[C@H](CCC(=O)O)NC(=O)[C@H](CCSC)NC(=O)[C@H](Cc2c[nH]c3ccccc23)NC(=O)[C@H](CO)NC(=O)[C@@H](N)CC(=O)O)C(C)C)[C@@H](C)CC)CSSC[C@@H]2NC(=O)[C@@H](NC(=O)[C@H](CCCCN)NC(=O)[C@H](CC(N)=O)NC(=O)[C@H](C)NC(=O)[C@H](CC(C)C)NC(=O)[C@H](C)NC(=O)[C@H](CO)NC(=O)[C@H](Cc3ccc(O)cc3)NC(=O)[C@H](CC(C)C)NC(=O)[C@H](CCC(N)=O)NC(=O)c3ccc(-c4c5ccc(=[N+](C)C)cc-5oc5cc(N(C)C)ccc45)c(C(=O)[O-])c3)CSSC[C@H](NC(=O)CNC(=O)[C@H](C(C)C)NC(=O)[C@H](Cc3c[nH]cn3)NC2=O)C(=O)N[C@@H]([C@@H](C)O)C(=O)N[C@@H](CCCCN)C(=O)N[C@@H](CCCNC(=N)N)C(=O)N[C@@H](CO)C(=O)N[C@@H](CC(C)C)C(=O)N[C@@H](C)C(=O)N[C@@H](CCCNC(=N)N)C(=O)N[C@@H](Cc2ccccc2)C(=O)N[C@H](C(=O)O)CSSC[C@@H](C(=O)NCC(=O)N[C@@H](CCSC)C(=O)N[C@@H](CO)C(=O)N[C@H](C(=O)N[C@@H](Cc2c[nH]c3ccccc23)C(=O)N[C@@H](CO)C(=O)O)[C@@H](C)O)NC1=O
dissociation plateau (Relaxin receptor 1 (RXFP1, Homo sapiens, UniProt Q9HBX9); binding, NanoBRET; added: relaxin 1 µM): 23.4%

For quick reference, copied from above:
COc1ccc(F)cc1C(=O)NCc1ccc(-c2nn([C@@H](C)C(F)(F)F)c(N)c2C(N)=O)cc1
first melting temperature (BTK (Homo sapiens, UniProt Q06187); differential scanning fluorimetry; added: BTK inhibitor 100 µM): 41.2 °C

CCCCN1CCCCC1C(=O)Nc1c(C)cccc1C (stereo not drawn)
koff (Nuclear receptor subfamily 2 group C member 2 ligand-binding domain; SPR imaging; 600 nM): 4.59e-07 s⁻¹

N[C@@H](Cc1ccccc1)C(=O)O
ΔH (PAL1 (Petroselinum crispum, UniProt P24481, Y110F); binding, ITC): -37.7 kcal/mol
